Experimental data from different studies.
Parts stem from different laboratories: compare values within a part only.

Series 1
Target: RING finger protein unkempt homolog, zinc fingers 1-6, GST-SBP tag (UNK, Homo sapiens, UniProt Q9C0B0, residues 30-357)
Sequence of UniProt Q9C0B0 (30-357, looked up): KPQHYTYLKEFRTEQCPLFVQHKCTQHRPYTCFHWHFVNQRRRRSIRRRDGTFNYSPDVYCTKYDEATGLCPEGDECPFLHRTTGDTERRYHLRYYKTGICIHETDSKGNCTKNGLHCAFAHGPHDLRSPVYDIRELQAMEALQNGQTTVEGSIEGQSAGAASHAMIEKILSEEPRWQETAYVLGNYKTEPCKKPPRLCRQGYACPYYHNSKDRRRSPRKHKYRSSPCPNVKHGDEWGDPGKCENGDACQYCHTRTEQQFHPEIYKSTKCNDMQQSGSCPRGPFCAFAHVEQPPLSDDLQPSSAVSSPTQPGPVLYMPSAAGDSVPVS
Technique: RNA Bind-n-Seq
Molecule type: RNA
Medium: in vitro
Tested at: not given
Notes: RNA with constant flanks, human-mouse chimeric sites, ends assumed
Relative to: input RNA pool
Reading: higher = stronger binding
| Oligonucleotide | bound/input enrichment |
| --- | --- |
| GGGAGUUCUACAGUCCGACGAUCCUCAUGGCUGCAGAAACAGGAAGUGGCAAAACUGGUGCUUUUAGUAUUCCCGUUAUCCAGAUAGUGUAUGAAACUCUGAAAGACCAACAGGAAGGAAAGAAAGGGAAAACAACUAUUAAACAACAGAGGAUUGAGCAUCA | 0.617 ratio |
| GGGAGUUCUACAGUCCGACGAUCUAAGUUAUUUUGUACAGCUUUGUAAAUUGUAUAGCUUUUUAUAUUGCCAUGUUUAUUUUGUUUGGGUAAUUUGGUUCAUUAAGUACAUAGCUAAGGUAAUGAACAUCUUUUUCAGUAAUUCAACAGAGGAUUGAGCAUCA | 1.08 ratio |
| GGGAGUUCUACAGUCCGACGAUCAGAGCCCAGGACGUUGAUGCUACAAAUCCAAAUUAUGAAAUUAUGUGUAUGAUCAGAGACUUCAGAGGGAGCUUGGAUUACAGACCCCUAACAACAGCAGAUCCUAUUGAUGAACAUAGGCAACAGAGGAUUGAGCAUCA | 0.472 ratio |
| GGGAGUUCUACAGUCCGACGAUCGGCUGCUGGUGACUGUCCUGGAGUGGCCGUGUCACCGCCGGAACCUGGGCCAGACUAAUUUUAGAAAAUGCCAAGUAGGAAGUUUGUUGAGGGUGAAGUGGUCAGAGGCCGAUGGCCUGGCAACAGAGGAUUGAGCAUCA | 1.64 ratio |
| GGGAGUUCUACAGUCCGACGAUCCCUCUGCCCCGCUCUGCAGCCUGGGGACACUGGGCUGGGACCAGAAUCCAGCUUUCUUUUAAAACUCUCAGUGUAACUUCUUUUUCUGACAUUUCAUUUUUUUUAAAUAGUGUAUUUUUUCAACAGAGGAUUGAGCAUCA | 5.32 ratio |
| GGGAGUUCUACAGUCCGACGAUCUUGAAAACUGAUUCAAGUAAGUUUGAGUAUCACAAUGUUAGCUUUCUAAUUCCAUAAAAGUACUUGGUUUUUACAGUUUAUAAUCUGCAAUCCAUCACCGUUUAUAAGUAAAGAGCAACUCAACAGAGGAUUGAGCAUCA | 0.371 ratio |

Series 2
Target: Histone acetyltransferase KAT6A, both winged helices, GST fusion (KAT6A, Homo sapiens, UniProt Q92794, residues 1-181)
Technique: protein binding microarray
Molecule type: double-stranded DNA, one strand shown
Medium: in vitro
Tested at: not given
Notes: 8-mer, flanks averaged, mean of 2 arrays, mostly near background
Relative to: not given
Reading: higher = stronger binding
Construct (chain): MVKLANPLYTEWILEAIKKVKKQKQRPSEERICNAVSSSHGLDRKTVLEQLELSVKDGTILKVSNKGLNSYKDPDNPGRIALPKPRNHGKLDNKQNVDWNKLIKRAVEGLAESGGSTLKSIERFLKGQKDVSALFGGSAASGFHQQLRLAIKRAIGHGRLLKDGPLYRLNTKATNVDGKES
| Oligonucleotide | E-score |
| --- | --- |
| ACAGAACC | 0.0204 |
| CATGAAGG | -0.0429 |
| ATATCATA | -0.0201 |
| ACACTGAG | -0.0349 |
| ATAGTCAG | -0.165 |
| GGGCCAAA | 0.108 |
| CCGTGCAA | 0.135 |
| ACATTATA | -0.0972 |
| TATCGGCA | 0.154 |
| CCACTGAC | -0.0613 |
| AATCTGAA | -0.0468 |
| CACACGTA | -0.166 |
| CAGCTAAA | -0.067 |
| AGAAATGA | -0.0401 |
| CCGAGATC | -0.0375 |
| ATGAATAC | 0.0438 |
| CTTGTGTC | -0.112 |
| GCGTCCGA | 0.23 |
| TACGGCTA | 0.199 |
| GATGAGAC | -0.0262 |
| GGGTTGAC | -0.0335 |
| GCCCTTCC | -0.00874 |
| ACATTTCG | -0.0659 |
| GCATGCCA | -0.0955 |
| GGGGGCGA | -0.0128 |

Series 3
Target: RNA binding protein fox-1 homolog 2, RRM domain, GST-SBP tag (RBFOX2, Homo sapiens, UniProt O43251-10, residues 100-194)
Technique: RNA Bind-n-Seq
Molecule type: RNA
Medium: in vitro
Tested at: 365 nM
Notes: natural RNA segment, single round, ends assumed
Relative to: no-protein control
Reading: higher = stronger binding
Construct (chain): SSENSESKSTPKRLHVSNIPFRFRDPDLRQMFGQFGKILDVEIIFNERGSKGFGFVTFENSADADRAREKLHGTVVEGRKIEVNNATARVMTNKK
| Oligonucleotide | RBNS enrichment (R) |
| --- | --- |
| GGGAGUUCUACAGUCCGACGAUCGCAAGGAUUCAGCACCAGUUAUGUUUGAAUGAACCCUCCUUUUCUCUGAGAUUCUGGUCCCUGGAAAUCCCUUUCUGCUAGUGGUGAGCAUGUAAGUGUUAAGUUUUUAAUGGAAUUCUCGGGUGCCAA | 5.47 |
| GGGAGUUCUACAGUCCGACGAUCCGCCUCGCAGAUUUGCCAAGUAUCCGCUUCCUGUGGAAGCAAGACCAAAAGGAAAUCAACUGAGUGGGUGUUUGGAAGAGGAAGGAGCAACUCUCGGGCAGCCUGCCCAAUGGAAUUCUCGGGUGCCAA | 0.751 |
| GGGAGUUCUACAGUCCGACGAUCUGCCACUAACCCCUCUCCACCACUUGCUCACUCUUGGCCUUGGCCUUGGCCUUUAGGUCCCUGGUGGAGGGAGAUGACCCAUGCCAGGUCCAGCACAAGAUGUGAAGAUUUGGAAUUCUCGGGUGCCAA | 0.443 |
| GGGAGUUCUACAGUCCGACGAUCCAUUGCCUACAGUGAUGAAAGCGUCUAUGGUCUUGAAGCUGCUGUACCUGAGGUGGGGGGUUCCAUUCUACGAAGAGAGGUGGCGCUCCUUCCUUGACAUCCAGUUCCUCUGGAAUUCUCGGGUGCCAA | 0.225 |
| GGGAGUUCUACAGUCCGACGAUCAGCAGCUUAAACAGCACUUUUAAUUAACUCCUAAACAUUACAUGGUGGGACUGUGGAGACUCCGUUAAGACAGGAGCUUGUCAGAGGUGGACAACACGAAGAUUUCCUUUUGGAAUUCUCGGGUGCCAA | 0.635 |
| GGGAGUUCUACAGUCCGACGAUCCAUCCAGCAGUCAGAUGUGUCCUCGGUCCUCUGUGGCCCUCCGUUGCCGCCUGUGUGCUUUGCCCGUGUGCUCCUGCUGUCCCUCUGCCUGGGAUGGCCGCCCUGCUCUGUGGAAUUCUCGGGUGCCAA | 3.93 |
| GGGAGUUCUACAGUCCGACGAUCACGCUUGCAGUUGAAAGUGCCAGUGUCAAAGAAAGUGUUGAGAAGCUGCCUCUUCAGUGCAAAGAUGAAAAGGAACAUGCUGCUGACGGCCCCCAGCACCAAAGCUUAGCUGGAAUUCUCGGGUGCCAA | 0.253 |
| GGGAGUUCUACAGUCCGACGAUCGUUACCCUUGGAAGAUAAAGCUGGGUCUUCAGGAACUCAGUGUCUGGGAGGAAAGCAUGGCCCAGCAUUCAGCAUGUGUUCCUUUCUGCAGUGGUUCUUAUCACCACCUCUGGAAUUCUCGGGUGCCAA | 8.2 |

Series 4
Target: Centromere-binding protein 1, full length, N-terminal tag (CBF1, Saccharomyces cerevisiae, UniProt P17106, residues 1-351)
Sequence of UniProt P17106 (whole entry, looked up): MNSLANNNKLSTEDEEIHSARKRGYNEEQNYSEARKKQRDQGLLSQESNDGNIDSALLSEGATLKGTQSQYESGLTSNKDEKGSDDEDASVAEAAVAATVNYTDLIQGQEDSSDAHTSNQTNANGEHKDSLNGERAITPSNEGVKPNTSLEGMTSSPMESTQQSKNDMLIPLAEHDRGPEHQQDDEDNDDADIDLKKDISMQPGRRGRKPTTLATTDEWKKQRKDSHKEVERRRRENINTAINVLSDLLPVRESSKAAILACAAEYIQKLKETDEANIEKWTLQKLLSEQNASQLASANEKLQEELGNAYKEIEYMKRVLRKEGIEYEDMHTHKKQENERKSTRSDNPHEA
Technique: protein-binding microarray
Molecule type: double-stranded DNA, one strand shown
Medium: in vitro
Tested at: 0.8 µM
Notes: whole 60-bp probe, no competitor
Reading: higher = stronger binding
| Oligonucleotide | fluorescence intensity [a.u.] |
| --- | --- |
| GAACTTTTTCCAACGCGCATGACTAACCTACTATAGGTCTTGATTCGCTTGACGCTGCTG | 678 |
| GAAGTATTGTGCGAGCACGCAGGACGGGAAAAATAGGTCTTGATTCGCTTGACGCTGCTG | 553 |
| GAAGTTAGTTTGCAGCACATGAGTAGCAGTGGCTAGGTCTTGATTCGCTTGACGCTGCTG | 610 |
| GAAACTGCACACACACACGTTTTATCTTTACGTTAGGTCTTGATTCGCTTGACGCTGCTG | 615 |
| CTACCGATGGAATAGCACATGGTGATGGTACAATTCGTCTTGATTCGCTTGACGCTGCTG | 684 |
| CTACGAAGAAAGCACGTGAGGATTGAAGAAAACTTCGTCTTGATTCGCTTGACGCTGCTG | 5580 |
| TGTACGAAGCTATGTCTCGTGATTATAGTAGTTAGGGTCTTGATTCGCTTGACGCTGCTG | 2220 |
| CTAAAACTATTTTCCCCCGTGAGACAGCGACTGTTCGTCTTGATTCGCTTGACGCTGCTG | 526 |
| CCTAACTACTATACATTCGTGCTATAGCTTCGTACAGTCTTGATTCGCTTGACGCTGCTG | 523 |
| GAAAGAAAGTGATGTTCCGTGACCTTTTTTATTTAGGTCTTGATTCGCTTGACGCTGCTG | 887 |
| CTAGAACTTTGAGCTCCCTCACGTGGAAAATATTTCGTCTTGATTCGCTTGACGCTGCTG | 5630 |
| CTACATATTCATATGCACGTTCTTTTTTTAATTTTCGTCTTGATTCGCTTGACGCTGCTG | 671 |
| CCTAACTACTATACATGTGAGCTATAGCTTCGTACAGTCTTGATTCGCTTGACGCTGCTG | 832 |
| CCTAACTACTATAAGCACGTGACATAGCTTCGTACAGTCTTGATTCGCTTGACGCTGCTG | 19200 |
| CTATGCGCGTAAAAACAGGAGATAAGCACTGTTTTCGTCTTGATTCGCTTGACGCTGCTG | 505 |
| CTAGCACGTGCGATCATCGTGGCGGGGTTTTAATTCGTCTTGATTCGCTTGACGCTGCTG | 7870 |
| GAAGCCTCGGCCTGCCGCGTGGTGGTGGTAGTTTAGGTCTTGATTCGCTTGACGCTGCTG | 502 |
| GAACAAATGTTACGTGGTGTTGAAGAAAGAATGTAGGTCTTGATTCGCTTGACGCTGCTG | 582 |
| CTATAGTAAAGTGCTGATGTCTTCTGAGTTGTCTTCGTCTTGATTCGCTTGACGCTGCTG | 522 |

Excerpt of the above (series 4):
| Oligonucleotide | fluorescence intensity [a.u.] |
| --- | --- |
| GAAAGAAAGTGATGTTCCGTGACCTTTTTTATTTAGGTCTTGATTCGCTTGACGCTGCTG | 887 |
| GAAGTATTGTGCGAGCACGCAGGACGGGAAAAATAGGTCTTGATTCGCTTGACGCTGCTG | 553 |
| GAACTTTTTCCAACGCGCATGACTAACCTACTATAGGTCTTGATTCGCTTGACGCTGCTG | 678 |
| CCTAACTACTATAAGCACGTGACATAGCTTCGTACAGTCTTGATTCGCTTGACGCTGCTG | 19200 |
| CTATAGTAAAGTGCTGATGTCTTCTGAGTTGTCTTCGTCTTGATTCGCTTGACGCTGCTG | 522 |
| CCTAACTACTATACATTCGTGCTATAGCTTCGTACAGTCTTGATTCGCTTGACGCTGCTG | 523 |
| CTAGAACTTTGAGCTCCCTCACGTGGAAAATATTTCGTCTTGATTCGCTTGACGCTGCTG | 5630 |
